Experimental data pooled from the literature.
A part holds a random share of what one study measured.

Study 1 — method: protein-binding microarray; molecule type: double-stranded DNA, one strand shown; matrix: in vitro; concentration: 2540 nM top; notes: 60-bp whole probe; together with: salmon DNA 0.4 mg/ml; relative to: random background probes; direction: higher = stronger binding; all sequences stand within: GCCTAGCAC … GTCTTGATTCGCTTGACGCTGCTG
Target: Interferon regulatory factor 3, full length, phosphomimetic (IRF3, Homo sapiens, UniProt Q14653, residues 1-427, S386D/S396D/S398D/S402D/T404D/S405D)
Residues (chain): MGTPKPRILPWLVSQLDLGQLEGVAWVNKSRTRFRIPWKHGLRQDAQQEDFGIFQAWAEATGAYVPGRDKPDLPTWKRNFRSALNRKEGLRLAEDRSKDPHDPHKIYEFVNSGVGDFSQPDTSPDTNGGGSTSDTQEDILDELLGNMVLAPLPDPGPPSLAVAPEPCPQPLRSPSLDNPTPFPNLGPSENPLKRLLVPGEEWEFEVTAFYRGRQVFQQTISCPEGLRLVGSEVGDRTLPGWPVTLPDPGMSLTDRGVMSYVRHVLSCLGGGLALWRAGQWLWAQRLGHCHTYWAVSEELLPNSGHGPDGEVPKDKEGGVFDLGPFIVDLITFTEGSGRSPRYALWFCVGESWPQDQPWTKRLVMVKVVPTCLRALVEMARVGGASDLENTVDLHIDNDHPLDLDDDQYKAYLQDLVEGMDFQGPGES
Oligonucleotide | fitted relative affinity [z-score]
TCATCATTGTTTTTCATACTGTGCTAG | 0.617
TCAACTTTATGTAGGAAACTGTGCTAG | 0.242
TAAGAACTGAGACTGGATTAGTGCTAG | -0.487
TCAGCTTCTTTTTTATTACTGTGCTAG | 1.16
GACGGACTGGTCTATCGGGACGTGCTA | -0.499
TTAGGACTGGGTCACGGTTAGTGCTAG | -0.7
TTAGGTGTCGGGTATCGGTTAGTGCTA | 1.72
TCAATTTCCATTTTCTAACTGTGCTAG | 6.29
GCTTTTTCCCCCCTCACGCAGTGCTAG | 1.96
GACGGTTCCCTTTGCCTGACGTGCTAG | 3.52
TTAGGTTTCCTTCTCCTATAGTGCTAG | 10.5
GACGATTTCGGTTTTCGAGACGTGCTA | 5.7
TTAGGTTTCGACACCGGGTTAGTGCTA | 2.25
TTAGGTCTCCTAGTGCTTTAGTGCTAG | 0.67
TTAGGTATCCTAGTGCTTTAGTGCTAG | 2.34
GACGGTCTCGGCCTCGGGACGTGCTAG | -0.393
AGTATGTTCCTTATTTAAGAGTGCTAG | 2.74
TAGTATATACACTTATGACTGTGCTAG | -0.0378
TTAGATTTAGGGACTGGATTAGTGCTA | -0.462
TTAGGACTAGGTTTCGGTTAGTGCTAG | 4.12
TTTGCTTTCCTTTGCTTTCTGTGCTAG | 3.59
TTAGGACTGGACCATCGGTTAGTGCTA | -0.675
TCAATTTTGAGACTCATACTGTGCTAG | 0.311

Study 2 — method: aptamer microarray, sandwich; molecule type: DNA with 2'F-ANA; matrix: in vitro; concentration: 200 nM; together with: Cy3 exosite-II aptamer, 400 nM; direction: higher = stronger binding; oligonucleotide: GGTTGGTGTGGTTGG
Target: Prothrombin, mature alpha-thrombin (F2, Homo sapiens, UniProt P00734)
Notes: whole 15-mer aptamer, many near background
Modification | mean fluorescence intensity
2'F-ANA at 2 3 8 11 12 13 14 15 | 483 a.u.
2'F-ANA at 1 2 4 7 9 12 15 | 284 a.u.
2'F-ANA at 2 5 9 10 11 12 14 15 | 45 a.u.
2'F-ANA at 1 3 6 9 10 11 14 | 110 a.u.
2'F-ANA at 1 3 5 8 12 14 | 55.5 a.u.
2'F-ANA at 2 3 4 5 9 11 12 13 | 103 a.u.
2'F-ANA at 1 5 7 9 11 12 | 156 a.u.
2'F-ANA at 1 4 5 8 9 11 13 14 15 | 46.3 a.u.
2'F-ANA at 2 4 5 6 7 8 9 12 14 | 84.4 a.u.
2'F-ANA at 2 4 6 9 10 11 13 14 | 70 a.u.
2'F-ANA at 1 3 4 5 6 8 9 10 12 13 14 15 | 195 a.u.
2'F-ANA at 1 3 4 5 6 10 12 13 15 | 289 a.u.
2'F-ANA at 2 4 8 9 12 13 14 15 | 102 a.u.
2'F-ANA at 2 3 4 6 13 | 446 a.u.
2'F-ANA at 3 4 5 6 11 12 15 | 143 a.u.
2'F-ANA at 1 4 5 6 7 8 11 12 13 | 72.4 a.u.
2'F-ANA at 3 9 12 13 | 1190 a.u.
2'F-ANA at 1 2 3 4 7 8 10 11 15 | 62.4 a.u.
2'F-ANA at 1 2 4 6 7 8 10 11 12 13 14 | 90.1 a.u.
2'F-ANA at 1 3 4 5 7 11 13 15 | 48.3 a.u.
2'F-ANA at 3 5 6 8 9 10 15 | 53.5 a.u.
2'F-ANA at 5 12 15 | 193 a.u.
2'F-ANA at 4 9 12 14 | 116 a.u.
2'F-ANA at 2 4 5 6 7 9 10 12 13 14 15 | 51.5 a.u.
2'F-ANA at 3 4 8 12 14 15 | 454 a.u.

Study 3 — method: protein binding microarray; molecule type: double-stranded DNA, one strand shown; matrix: in vitro; concentration: not given; relative to: not given; direction: higher = stronger binding
Target: Histone acetyltransferase KAT6A, both winged helices, GST fusion (KAT6A, Homo sapiens, UniProt Q92794, residues 1-181)
Notes: 8-mer, flanks averaged, mean of 2 arrays, mostly near background
Target sequence (chain): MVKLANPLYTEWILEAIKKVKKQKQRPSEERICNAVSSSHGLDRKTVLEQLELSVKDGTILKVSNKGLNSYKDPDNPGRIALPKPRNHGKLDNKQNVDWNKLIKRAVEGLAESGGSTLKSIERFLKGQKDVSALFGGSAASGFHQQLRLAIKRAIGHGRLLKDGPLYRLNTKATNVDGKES
Oligonucleotide | E-score
ATAATGCC | 0.0304
CCGAACAG | 0.00647
ACATGTTG | -0.0276
CTCATTGC | -0.146
GCAGGGTA | -0.253
ATGCATTA | -0.112
AACGCGAT | 0.151
GAACACGC | 0.247
CCGCGCGC | 0.411
GTTCGAGA | -0.0113
GCGCCTCC | 0.211
GATTTGCC | -0.0778
CAGACTTC | -0.225
CGGTTCCA | 0.111
ATAGTACC | 0.00249
ACTGTCTC | -0.122
AAGTTCCG | 0.127
CTTAATCA | -0.111
CGTGTGGC | 0.0581
ACGCAGAA | 0.131

Study 4 — method: RNA Bind-n-Seq; molecule type: RNA; matrix: in vitro; concentration: 365 nM; relative to: no-protein control; direction: higher = stronger binding
Target: RNA binding protein fox-1 homolog 2, RRM domain, GST-SBP tag (RBFOX2, Homo sapiens, UniProt O43251-10, residues 100-194)
Notes: natural RNA segment, single round, ends assumed
Target sequence (chain): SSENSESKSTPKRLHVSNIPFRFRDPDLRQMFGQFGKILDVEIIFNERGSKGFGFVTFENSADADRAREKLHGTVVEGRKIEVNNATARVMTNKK
Oligonucleotide | RBNS enrichment (R)
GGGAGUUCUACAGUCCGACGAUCACUAUAUACCUGUAACUGGACCUGGAGAUGAAGAGAUACCCUCAUUGCUCUGUGUCUGACCCAAUAUUGUUGAAAAAUGAAAUAAAGCAUUAUGCAAAAGGUGUUACAUCUGGAAUUCUCGGGUGCCAA | 0.777
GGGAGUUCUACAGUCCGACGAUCCCAUUCUGAUUCCAGUGACACUUGUCAGGAGUCAGAGCCUUGUCUGUUAGACUGGACAGCUUGUGGCAAGUAAGUUUGCCUGUAACAAGCCAGAUUUUUAUUGAUAUUGUUGGAAUUCUCGGGUGCCAA | 0.546
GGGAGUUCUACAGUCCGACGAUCUCUCUGGCCUCCCCCACAAGAUGCCAGUAGCAAUCUUCUUCCCGAAGCUGUGACAAUCAGAAAUGUCUCUUAGACAUUUCCAAAUGUCCCCUGGGGCAUGGGAGGGUUUCUGGAAUUCUCGGGUGCCAA | 0.153
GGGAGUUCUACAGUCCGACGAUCCCUACUGAGAACUUCCUGUUCCAGGUUUUAGAAUUUUCUUAUUGUCGUUAGGACCAAAUGUAGACUGGCUCAGGACCUGUAAGGAAAUCACAGGUUCAGAGAUCUCUUAGUGGAAUUCUCGGGUGCCAA | 1.23
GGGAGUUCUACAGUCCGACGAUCAUUCCAGAAUCUCUGCUCUCAGAGUAGCUAAGAGAUUCGGUACAGAAGACGUUCUAUGGAGAAGCACAGGGGGCAUCUAAUGAGAUUGUCAGGCCCUUGGACAAGAUCCAUGGAAUUCUCGGGUGCCAA | 0.377
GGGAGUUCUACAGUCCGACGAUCCCAUGAAUCGUAUUGGUGAUUUUGCUAUAUUGACAGAUUCUCAUCUGUUACACUCUAGGAUCUCUCACAGGUCUGUGGCAAUUACUGUUCAUGAUUUCCUGAAAAAAUAUUGGAAUUCUCGGGUGCCAA | 0.34
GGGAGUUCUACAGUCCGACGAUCGCAUGUUAUGGGGAGGGGAGGGGGUUCUUCCAGCCUCAGGUCCCAGCUGUCUCACGUUGUUUAUUCUGCGUCCCCUUCUCCAAUAAAACAAGCCAGUUGGGCGUGGUUAUUGGAAUUCUCGGGUGCCAA | 11.8
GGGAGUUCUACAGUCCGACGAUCGAAAAAGAAAGUGCCUUAUUUUUCUUCAUGGUCAUUUAGUCAAGUGUCCUGUAAGAUCAGCUCCUCCCUCAGAAUAAAGUUACUGCAUGUUCCUCAGUCGCCCAGUAUGUUGGAAUUCUCGGGUGCCAA | 13.5
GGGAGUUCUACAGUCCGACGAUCUCUAACCAUAUACGAUAGGGCUCUUCGCUUUUAAUGAUAUCUGGGAUUUCUGUGGAACUUGGCAAAUUUUCAGAGCACCUUCACUCACAUAAUGUCAUUUGAACCUCACAUGGAAUUCUCGGGUGCCAA | 0.499

Excerpt of the above (study 3):
Oligonucleotide | E-score
CCGCGCGC | 0.411
GTTCGAGA | -0.0113
GCGCCTCC | 0.211
GATTTGCC | -0.0778
CAGACTTC | -0.225
CGGTTCCA | 0.111
ATAGTACC | 0.00249
ACTGTCTC | -0.122
AAGTTCCG | 0.127
CTTAATCA | -0.111
CGTGTGGC | 0.0581
ACGCAGAA | 0.131
